Results from different studies.
± marks the error that the study gave.
Melanocortin receptor 3: Melanocortin receptor 3 (Mus musculus, UniProt P33033)
Sequence of UniProt P33033 (whole entry, looked up): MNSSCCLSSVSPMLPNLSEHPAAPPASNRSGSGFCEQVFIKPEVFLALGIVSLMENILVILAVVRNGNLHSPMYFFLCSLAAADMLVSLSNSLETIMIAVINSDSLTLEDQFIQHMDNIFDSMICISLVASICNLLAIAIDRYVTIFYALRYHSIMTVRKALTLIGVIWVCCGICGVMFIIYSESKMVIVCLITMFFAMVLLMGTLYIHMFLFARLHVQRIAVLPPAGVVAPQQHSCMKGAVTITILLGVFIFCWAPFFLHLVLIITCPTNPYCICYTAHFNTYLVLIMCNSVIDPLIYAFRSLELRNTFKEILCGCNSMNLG
ATP5F1B/ATP5F1A/ATP synthase F(1) complex subunit gamma, mitochondrial: ATP5F1B/ATP5F1A/ATP synthase F(1) complex subunit gamma, mitochondrial (Homo sapiens, UniProt P06576+P25705+P36542)
Sequence of UniProt P36542 (whole entry, looked up): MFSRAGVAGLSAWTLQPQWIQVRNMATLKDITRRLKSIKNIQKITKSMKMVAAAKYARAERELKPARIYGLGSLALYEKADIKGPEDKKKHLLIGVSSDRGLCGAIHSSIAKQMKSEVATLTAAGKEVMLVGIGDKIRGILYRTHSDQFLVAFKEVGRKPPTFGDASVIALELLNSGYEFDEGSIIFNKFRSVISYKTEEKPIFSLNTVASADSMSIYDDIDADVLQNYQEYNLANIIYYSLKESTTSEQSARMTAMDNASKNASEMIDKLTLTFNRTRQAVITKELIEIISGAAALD
Sequence of UniProt P06576 (whole entry, looked up): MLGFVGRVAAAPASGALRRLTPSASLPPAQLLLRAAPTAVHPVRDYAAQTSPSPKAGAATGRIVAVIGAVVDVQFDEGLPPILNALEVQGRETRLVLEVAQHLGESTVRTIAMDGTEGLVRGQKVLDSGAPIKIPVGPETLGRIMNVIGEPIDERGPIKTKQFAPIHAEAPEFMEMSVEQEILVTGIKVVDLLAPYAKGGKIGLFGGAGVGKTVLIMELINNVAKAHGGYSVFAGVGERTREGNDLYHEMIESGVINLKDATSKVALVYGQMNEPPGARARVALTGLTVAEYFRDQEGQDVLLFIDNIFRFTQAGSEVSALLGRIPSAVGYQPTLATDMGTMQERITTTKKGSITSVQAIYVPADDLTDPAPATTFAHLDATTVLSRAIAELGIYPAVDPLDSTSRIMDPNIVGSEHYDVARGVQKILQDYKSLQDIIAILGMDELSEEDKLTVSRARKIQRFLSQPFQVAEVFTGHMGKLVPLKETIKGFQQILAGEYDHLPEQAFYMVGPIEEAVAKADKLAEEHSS
Sequence of UniProt P25705 (whole entry, looked up): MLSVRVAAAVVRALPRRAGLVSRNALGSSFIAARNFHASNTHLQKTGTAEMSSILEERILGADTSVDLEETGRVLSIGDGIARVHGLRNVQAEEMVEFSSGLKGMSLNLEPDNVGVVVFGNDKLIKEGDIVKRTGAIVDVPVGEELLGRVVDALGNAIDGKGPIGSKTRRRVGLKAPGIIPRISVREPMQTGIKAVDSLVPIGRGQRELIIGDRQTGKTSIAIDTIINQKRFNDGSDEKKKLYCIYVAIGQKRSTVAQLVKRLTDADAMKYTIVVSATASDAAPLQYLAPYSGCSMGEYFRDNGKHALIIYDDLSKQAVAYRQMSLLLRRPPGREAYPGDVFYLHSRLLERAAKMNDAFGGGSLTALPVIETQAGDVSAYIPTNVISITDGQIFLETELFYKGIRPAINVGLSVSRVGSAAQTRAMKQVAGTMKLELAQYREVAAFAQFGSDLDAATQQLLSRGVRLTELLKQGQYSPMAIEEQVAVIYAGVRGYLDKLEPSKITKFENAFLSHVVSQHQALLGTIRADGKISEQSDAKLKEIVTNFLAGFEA
Gonadotropin-releasing hormone receptor: Gonadotropin-releasing hormone receptor (Rattus norvegicus, UniProt P30969)
Sequence of UniProt P30969 (whole entry, looked up): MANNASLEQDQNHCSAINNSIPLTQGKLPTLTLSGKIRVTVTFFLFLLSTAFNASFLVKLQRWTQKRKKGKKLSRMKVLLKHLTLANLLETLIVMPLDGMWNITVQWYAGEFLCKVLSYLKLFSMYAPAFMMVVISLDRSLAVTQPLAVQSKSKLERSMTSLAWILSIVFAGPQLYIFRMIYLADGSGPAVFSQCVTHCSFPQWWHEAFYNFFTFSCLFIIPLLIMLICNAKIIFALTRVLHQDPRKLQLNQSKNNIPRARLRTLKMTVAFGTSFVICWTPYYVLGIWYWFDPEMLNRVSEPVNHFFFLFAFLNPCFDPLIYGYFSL
lasR: Transcriptional activator protein LasR (lasR, Pseudomonas aeruginosa, UniProt P25084)
Sequence of UniProt P33535 (whole entry, looked up): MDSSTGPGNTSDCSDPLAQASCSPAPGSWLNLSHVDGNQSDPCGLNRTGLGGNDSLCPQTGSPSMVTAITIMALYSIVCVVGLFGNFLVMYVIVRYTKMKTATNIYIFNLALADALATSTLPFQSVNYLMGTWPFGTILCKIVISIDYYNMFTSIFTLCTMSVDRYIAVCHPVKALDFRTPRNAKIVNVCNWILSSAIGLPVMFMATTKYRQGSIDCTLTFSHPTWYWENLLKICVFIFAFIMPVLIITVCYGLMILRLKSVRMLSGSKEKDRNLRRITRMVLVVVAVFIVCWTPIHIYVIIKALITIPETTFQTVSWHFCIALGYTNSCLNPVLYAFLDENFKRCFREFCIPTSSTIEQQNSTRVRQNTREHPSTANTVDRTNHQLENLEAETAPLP
Sequence of UniProt O43525 (whole entry, looked up): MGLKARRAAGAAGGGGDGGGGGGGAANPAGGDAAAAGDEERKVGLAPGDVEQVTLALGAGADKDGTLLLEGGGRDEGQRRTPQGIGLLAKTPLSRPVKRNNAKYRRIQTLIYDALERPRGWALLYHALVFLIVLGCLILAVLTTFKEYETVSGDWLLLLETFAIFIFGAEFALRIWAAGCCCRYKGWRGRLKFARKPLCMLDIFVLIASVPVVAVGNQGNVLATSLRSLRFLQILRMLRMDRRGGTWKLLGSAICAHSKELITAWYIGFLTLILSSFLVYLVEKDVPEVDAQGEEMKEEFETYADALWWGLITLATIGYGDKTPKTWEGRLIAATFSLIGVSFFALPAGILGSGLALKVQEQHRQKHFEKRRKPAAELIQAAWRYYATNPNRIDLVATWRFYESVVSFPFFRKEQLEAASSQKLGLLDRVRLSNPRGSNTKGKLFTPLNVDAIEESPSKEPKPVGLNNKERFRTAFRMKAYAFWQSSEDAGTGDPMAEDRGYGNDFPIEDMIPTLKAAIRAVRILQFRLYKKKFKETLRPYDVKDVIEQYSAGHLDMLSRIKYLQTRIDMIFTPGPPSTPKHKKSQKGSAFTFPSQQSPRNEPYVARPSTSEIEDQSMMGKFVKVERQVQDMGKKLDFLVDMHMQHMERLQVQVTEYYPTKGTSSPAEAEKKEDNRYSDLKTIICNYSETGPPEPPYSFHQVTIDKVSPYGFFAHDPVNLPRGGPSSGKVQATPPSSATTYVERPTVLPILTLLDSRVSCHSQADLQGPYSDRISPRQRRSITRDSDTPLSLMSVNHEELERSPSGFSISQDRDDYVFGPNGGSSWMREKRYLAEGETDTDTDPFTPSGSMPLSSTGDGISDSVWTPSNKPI
Sequence of UniProt P15207 (whole entry, looked up): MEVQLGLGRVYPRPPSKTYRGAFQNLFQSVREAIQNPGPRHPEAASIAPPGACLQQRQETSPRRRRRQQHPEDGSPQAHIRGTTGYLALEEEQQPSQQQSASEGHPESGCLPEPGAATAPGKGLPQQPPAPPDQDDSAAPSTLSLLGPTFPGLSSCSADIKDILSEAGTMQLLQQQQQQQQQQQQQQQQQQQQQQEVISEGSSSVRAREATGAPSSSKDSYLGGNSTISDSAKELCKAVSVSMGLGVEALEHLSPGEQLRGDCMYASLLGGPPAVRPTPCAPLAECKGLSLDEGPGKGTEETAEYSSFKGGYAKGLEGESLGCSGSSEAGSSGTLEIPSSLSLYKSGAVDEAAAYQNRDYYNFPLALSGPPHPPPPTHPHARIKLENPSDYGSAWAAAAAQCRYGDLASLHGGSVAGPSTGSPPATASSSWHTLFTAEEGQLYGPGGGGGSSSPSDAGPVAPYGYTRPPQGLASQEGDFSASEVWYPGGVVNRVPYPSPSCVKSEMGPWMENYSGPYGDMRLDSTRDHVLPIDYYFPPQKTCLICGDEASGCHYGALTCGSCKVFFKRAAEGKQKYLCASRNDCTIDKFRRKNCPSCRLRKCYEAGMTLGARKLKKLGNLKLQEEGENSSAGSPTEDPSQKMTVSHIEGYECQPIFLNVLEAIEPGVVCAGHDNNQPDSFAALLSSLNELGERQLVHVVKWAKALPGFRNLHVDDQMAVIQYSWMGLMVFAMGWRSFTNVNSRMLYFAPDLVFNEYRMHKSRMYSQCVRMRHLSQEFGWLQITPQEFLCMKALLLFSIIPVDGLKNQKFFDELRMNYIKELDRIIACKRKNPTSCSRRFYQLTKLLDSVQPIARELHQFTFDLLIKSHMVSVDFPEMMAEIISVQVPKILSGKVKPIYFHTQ
Sequence of UniProt P37288 (whole entry, looked up): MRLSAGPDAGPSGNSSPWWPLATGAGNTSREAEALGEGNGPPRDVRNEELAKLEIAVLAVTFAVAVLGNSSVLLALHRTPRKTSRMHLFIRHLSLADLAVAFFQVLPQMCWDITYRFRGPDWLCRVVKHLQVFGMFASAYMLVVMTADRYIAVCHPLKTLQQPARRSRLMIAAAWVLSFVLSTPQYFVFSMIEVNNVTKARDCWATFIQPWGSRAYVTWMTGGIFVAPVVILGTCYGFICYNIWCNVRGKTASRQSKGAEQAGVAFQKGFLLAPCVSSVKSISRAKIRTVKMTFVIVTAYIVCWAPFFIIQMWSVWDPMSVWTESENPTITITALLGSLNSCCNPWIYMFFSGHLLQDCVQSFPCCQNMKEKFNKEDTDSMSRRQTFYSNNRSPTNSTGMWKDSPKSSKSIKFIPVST
Sequence of UniProt P41149 (whole entry, looked up): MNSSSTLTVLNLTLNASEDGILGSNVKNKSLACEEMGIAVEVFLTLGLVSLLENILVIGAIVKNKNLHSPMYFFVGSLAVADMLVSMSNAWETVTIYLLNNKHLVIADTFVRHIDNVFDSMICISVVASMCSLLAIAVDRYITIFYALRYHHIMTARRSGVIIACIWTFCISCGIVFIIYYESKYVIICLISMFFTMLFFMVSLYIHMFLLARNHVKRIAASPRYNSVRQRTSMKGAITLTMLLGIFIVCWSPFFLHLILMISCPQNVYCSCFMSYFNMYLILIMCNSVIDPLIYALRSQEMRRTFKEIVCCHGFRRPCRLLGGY

`C#CCC[C@H](NC(=O)[C@H](Cc1c[nH]c2ccccc12)NC(=O)[C@H](CCCNC(=N)N)NC(=O)[C@@H](Cc1ccccc1)NC(=O)[C@H](Cc1c[nH]cn1)NC(=O)[C@H](CCN=[N+]=[N-])NC(=O)[C@H](CCCC)NC(C)=O)C(N)=O` gave an EC50 of about 0.05 nM (Melanocortin receptor 5 (Mus musculus, UniProt P41149); reporter gene, agonist).
For `CC(=O)N[C@@H](CCCNC(=N)N)C(=O)N[C@@H](CCCNC(=N)N)C(=O)N[C@H](Cc1ccc(I)cc1)C(=O)N[C@H](C(N)=O)[C@@H](c1ccccc1)c1c[nH]c2ccccc12`, the EC50 was 2400 nM (Melanocortin receptor 3; cAMP, agonist, AlphaScreen).
`Cn1ccc(-c2ccc(Cn3cc(C(=O)N[C@H]4CCCC[C@@H]4O)c4c(F)cc(F)cc43)cn2)n1` has an EC50 of 263 nM (Muscarinic acetylcholine receptor M1 (Chrm1, Mus musculus, UniProt P12657); calcium mobilisation, positive allosteric modulator; CHO; together with: acetylcholine EC20).
The EC50 of `CS(=O)(=O)c1cccc(OCCCC(=O)N[C@H]2CCOC2=O)c1` is reported as 5600 nM (Transcriptional activator protein LasR (lasR, Pseudomonas aeruginosa, UniProt P25084, T75V); reporter gene, agonist).
For `CC(=O)N1CCCC[C@H]1C(=O)NC(C)(C)C(=O)N1CCCC[C@H]1C(=O)NC(C)(C)C(=O)NC(C)(C)C(=O)N[C@@H](CC(C)C)C(=O)N[C@H](C)CC(=O)NCC(=O)NC(C)(C)C(=O)NC(C)(C)C(=O)N1CCCC[C@H]1C(=O)NC(C)(C)C(=O)NCC(=O)N[C@@H](CC(C)C)C(=O)NC(C)(C)C(=O)N[C@@H](CC(C)C)C[N+]1=C2CCCN2CCC1`, the EC50 was 2.6 ± 0.1 nM (ATP5F1B/ATP5F1A/ATP synthase F(1) complex subunit gamma, mitochondrial; ATP production, inhibitor; permeabilized MCF7).
With `CC[C@H](C)[C@H](NC(=O)[C@H](CO)NC(=O)[C@H](Cc1ccc(O)cc1)NC(=O)[C@H](CC(=O)O)NC(=O)[C@H](CO)NC(=O)[C@@H](NC(=O)[C@H](Cc1ccccc1)NC(=O)[C@@H](NC(=O)CNC(=O)[C@@H]1CCCN1C(=O)[C@H](C)NC(=O)[C@@H](N)Cc1ccc(O)cc1)[C@@H](C)O)[C@@H](C)CC)C(=O)N[C@@H](C)C(=O)N[C@@H](CCSC)C(=O)N[C@@H](CC(=O)O)C(=O)N[C@@H](CCCCN)C(=O)N[C@H](C(=O)N[C@@H](CCCNC(=N)N)C(=O)N[C@@H](CCC(N)=O)C(=O)N[C@@H](CCC(N)=O)C(=O)N[C@@H](CC(=O)O)C(=O)N[C@@H](Cc1ccccc1)C(=O)N[C@H](C(=O)N[C@@H](CC(N)=O)C(=O)N[C@@H](Cc1c[nH]c2ccccc12)C(=O)N[C@@H](CC(C)C)C(=O)N[C@@H](CC(C)C)C(=O)N[C@@H](C)C(=O)N[C@@H](CCC(N)=O)C(=O)N[C@@H](CCCCN)C(=O)NCC(=O)N[C@@H](CCCCN)C(=O)N[C@@H](CCCCN)C(=O)N[C@@H](CC(N)=O)C(=O)N[C@@H](CC(=O)O)C(=O)N[C@@H](Cc1c[nH]c2ccccc12)C(=O)N[C@@H](CCCCN)C(=O)N[C@@H](Cc1c[nH]cn1)C(=O)N[C@@H](CC(N)=O)C(=O)N[C@@H](CC(C)C)C(=O)N[C@H](C(=O)N[C@@H](CCC(N)=O)C(=O)O)[C@@H](C)O)C(C)C)[C@@H](C)CC` the EC50 was 13 nM (Gastric inhibitory polypeptide receptor (Rattus norvegicus, UniProt P43219); cAMP, agonist).
For `CC(C)C[C@H](NC(=O)[C@@H](CCCNC(=N)N)NC(=O)[C@H](Cc1c[nH]cn1)NC(=O)[C@H](CO)NC(=O)[C@H](Cc1c[nH]c2ccccc12)NC(=O)[C@H](Cc1c[nH]cn1)NC(=O)[C@@H]1CCC(=O)N1)C(=O)N[C@@H](CCCNC(=N)N)C(=O)N1CCC[C@H]1C(=O)NCC(N)=O`, the EC50 was 21.2 ± 6.9 nM (Gonadotropin-releasing hormone receptor; inositol phosphate accumulation, agonist; WPE-1-NB26-3 expressing Gonadotropin-releasing hormone receptor; 60 min, 37 °C, together with: 10 mM LiCl).
The EC50 of `CC(=O)N[C@@H](Cc1ccc(O)cc1)C(=O)N[C@@H](CCCNC(=N)NC(=O)NCCCCN)C(=O)N[C@@H](CC(C)C)C(=O)N[C@@H](CCCNC(=N)N)C(=O)N[C@@H](Cc1ccc(O)cc1)C(N)=O` is reported as 1460 nM (Neuropeptide Y receptor type 4 (NPY4R, Homo sapiens, UniProt P50391); calcium signal, agonist).
`CCCCCCCCCC(=O)CC(=O)Nc1ccccc1` gave an EC50 of 920 nM (lasR; reporter gene, agonist; Escherichia coli, JLD271 with LasR plasmid).
The EC50 of `CCc1noc(CC)c1C(=O)O[C@H]1C(C)=C[C@]23C(=O)[C@@H](C=C(CO)[C@@H](O)[C@]12O)[C@H]1[C@@H](C[C@H]3C)C1(C)C` is reported as 0.9 nM (Protein kinase C gamma type (PRKCG, Homo sapiens, UniProt P05129); enzyme activity, activator).
`Cc1cc(O)cc(C)c1CC(N)C(=O)NC1CCNc2c(CN3CCCCC3)cc(Cc3ccccc3)cc21` (centres unmarked) gave an EC50 of 2.3 nM (Mu-type opioid receptor (Oprm1, Rattus norvegicus, UniProt P33535); GTPγS binding, agonist, radiometric; cell membranes).
`Cc1cc(O)c(I)c(C)c1C[C@H](N)C(=O)N[C@H](C)C(=O)N[C@@H](Cc1ccccc1)C(=O)N[C@@H](Cc1ccccc1)C(N)=O` gave an EC50 of 17 ± 1 nM (Mu-type opioid receptor (Oprm1, Mus musculus, UniProt P42866); agonist).
`O=C(NCc1cc(Br)cc(Br)c1OC(=O)c1ccccc1[N+](=O)[O-])c1ccccc1Cl` gave an EC50 of 7.8 nM (lasR; reporter gene, agonist; Escherichia coli, JLD271 with LasR plasmid).
`C[C@@H]1NC(=O)[C@H](CC(N)=O)N2C[C@H](Cc3c[nH]c4ccccc34)NC(=O)[C@@H](CSCC2=O)NC(=O)[C@H](CCCNC(=N)N)NC(=O)[C@@H](Cc2ccccc2)NC(=O)[C@H](Cc2c[nH]cn2)NC(=O)[C@@H](NC(=O)[C@@H](N)Cc2ccc(O)cc2)CSSC[C@@H](C(=O)N[C@@H](Cc2ccc(O)cc2)C(N)=O)NC(=O)[C@H](Cc2ccccc2)NC1=O` gave an EC50 of 5300 nM (Melanocortin receptor 3; reporter gene, agonist).
With `CC(=O)N1CCCC[C@H]1C(=O)NC(C)(C)C(=O)N1CCCC[C@H]1C(=O)NC(C)(C)C(=O)NC(C)(C)C(=O)N[C@@H](CC(C)C)C(=O)NC[C@H](C)C(=O)NCC(=O)NC(C)(C)C(=O)NC(C)(C)C(=O)N1CCCC[C@H]1C(=O)NC(C)(C)C(=O)NCC(=O)N[C@@H](CC(C)C)C(=O)NC(C)(C)C(=O)N[C@@H](CC(C)C)C[N+]1=C2CCCN2CCC1` the EC50 was 0.95 ± 0.27 nM (ATP5F1B/ATP5F1A/ATP synthase F(1) complex subunit gamma, mitochondrial; ATP production, inhibitor; permeabilized MCF7).
With `O=C(CCc1ccc(C(F)(F)F)cc1)N[C@H]1CCOC1=O` the EC50 was 140000 nM (lasR; reporter gene, agonist; PAO-JP2 pump active).
`CCCCC/C=C\C/C=C\C/C=C\C/C=C\CCCC(=O)NC(CO)C(=O)O` (stereo in doubt) has an EC50 of 3000 nM (Voltage-gated potassium channel, KQT; KCNQ2(Kv7.2)/KCNQ3(Kv7.3) (KCNQ3/KCNQ2, Homo sapiens, UniProt O43525+O43526); maximal conductance, activator, two-electrode voltage clamp; Xenopus oocytes).
With `C[C@@H]1NC(=O)[C@H](CC(N)=O)NC(=O)[C@H](Cc2c[nH]c3ccccc23)NC(=O)[C@H](CCCNC(=N)N)NC(=O)[C@@H](Cc2ccccc2)NC(=O)[C@H](Cc2c[nH]cn2)NC(=O)[C@@H](NC(=O)[C@@H](N)Cc2ccc(O)cc2)CCCn2nncc2-c2cccc(c2)-c2cnnn2CCC[C@@H](C(=O)N[C@@H](Cc2ccc(O)cc2)C(N)=O)NC(=O)[C@H](Cc2ccccc2)NC1=O` the EC50 was 2740 ± 706 nM (Melanocortin receptor 3; agonist).
`COc1cc(C(Oc2ccc(C[C@H](N)C(=O)N[C@H](C)C(=O)NCC(=O)N(C)[C@@H](Cc3ccccc3)C(=O)NCCO)cc2)C(=O)O)c([N+](=O)[O-])cc1OC` (some centres unmarked) has an EC50 of 1700 nM (Mu-type opioid receptor (Oprm1, Mus musculus, UniProt P42866); cAMP, agonist, luciferase).
For `CS(=O)(=O)c1cccc(OCCCC(=O)NC2CC3CC3C2O)c1` (centres unmarked), the EC50 was over 100000 nM (Transcriptional activator protein LasR (lasR, Pseudomonas aeruginosa, UniProt P25084, A127W/Y93F); reporter gene, agonist; Escherichia coli lasB-lux reporter).
The EC50 of `CC1(C(=O)O)CCCC2(C)C1CCC1(C)c3cocc3CCC12` (centres unmarked) is reported as 27100 nM (Androgen receptor (Ar, Rattus norvegicus, UniProt P15207)).
`CCCCCCCCCC(=O)CC(=O)NC1CCCCC1=O` (centres unmarked) has an EC50 of over 200000 nM (lasR; reporter gene, agonist; PAO-JP2 pump active).
For `CC(C)[C@@H]1NC(=O)[C@H](Cc2ccccc2)NC(=O)[C@H](Cc2ccc(O)cc2)NC(=O)CCSSCCC(=O)N[C@@H](Cc2ccc(O)cc2)C(=O)N[C@@H](Cc2ccccc2)C(=O)N[C@@H](C(C)C)C(=O)N[C@@H](CC(N)=O)C(=O)N[C@H](C(=O)N2CCC[C@H]2C(=O)N[C@H](CCCNC(=N)N)C(=O)NCC(N)=O)CSSC[C@@H](C(=O)N2CCC[C@H]2C(=O)N[C@H](CCCNC(=N)N)C(=O)NCC(N)=O)NC(=O)[C@H](CC(N)=O)NC1=O`, the EC50 was 78 nM (Vasopressin V1a receptor (AVPR1A, Homo sapiens, UniProt P37288); inositol phosphate, agonist).
`NCCCC[C@@H](NC(=O)[C@H](Cc1c[nH]cn1)NC(=O)[C@H](CO)NC(=O)[C@H](Cc1c[nH]c2ccccc12)NC(=O)[C@H](Cc1c[nH]cn1)NC(=O)[C@@H]1CCC(=O)N1)C(=O)N[C@@H](Cc1c[nH]c2ccccc12)C(=O)N[C@@H](Cc1ccc(O)cc1)C(=O)N1CCC[C@H]1C(=O)NCC(N)=O` has an EC50 of 0.8 ± 0.2 nM (Gonadotropin-releasing hormone receptor; inositol phosphate accumulation, agonist; WPE-1-NB26-3 expressing Gonadotropin-releasing hormone receptor; 60 min, 37 °C, together with: 10 mM LiCl).
For `CCCCc1cc(Cc2ccccc2)cc2c1NCCC2NC(=O)C(N)Cc1c(C)cc(O)cc1C` (centres unmarked), the EC50 was 17 nM (Mu-type opioid receptor (Oprm1, Rattus norvegicus, UniProt P33535); GTPγS binding, agonist, radiometric; cell membranes).
With `CC(=O)N[C@@H](CCCNC(=N)N)C(=O)N[C@@H](CCCNC(=N)N)C(=O)N[C@@H](C(=O)N1Cc2ccccc2C[C@H]1C(N)=O)[C@H](c1ccccc1)c1c[nH]c2ccccc12` the EC50 was 2700 nM (Melanocortin receptor 3; cAMP, agonist, AlphaScreen).

A few entries again:
`Cn1ccc(-c2ccc(Cn3cc(C(=O)N[C@H]4CCCC[C@@H]4O)c4c(F)cc(F)cc43)cn2)n1` has an EC50 of 263 nM (Muscarinic acetylcholine receptor M1 (Chrm1, Mus musculus, UniProt P12657); calcium mobilisation, positive allosteric modulator; CHO; together with: acetylcholine EC20).
`C[C@@H]1NC(=O)[C@H](CC(N)=O)N2C[C@H](Cc3c[nH]c4ccccc34)NC(=O)[C@@H](CSCC2=O)NC(=O)[C@H](CCCNC(=N)N)NC(=O)[C@@H](Cc2ccccc2)NC(=O)[C@H](Cc2c[nH]cn2)NC(=O)[C@@H](NC(=O)[C@@H](N)Cc2ccc(O)cc2)CSSC[C@@H](C(=O)N[C@@H](Cc2ccc(O)cc2)C(N)=O)NC(=O)[C@H](Cc2ccccc2)NC1=O` gave an EC50 of 5300 nM (Melanocortin receptor 3; reporter gene, agonist).
